Assay results gathered from unrelated publications.
Every numbered part comes from another study and shows a few of its results, in no order.

Set 1 — technique: RNA Bind-n-Seq; molecule type: RNA; matrix: in vitro; tested at: not given; reference: input RNA pool; reading: higher = stronger binding
Target: RING finger protein unkempt homolog, zinc fingers 1-6, GST-SBP tag (UNK, Homo sapiens, UniProt Q9C0B0, residues 30-357)
Chain of UniProt Q9C0B0 (30-357, looked up): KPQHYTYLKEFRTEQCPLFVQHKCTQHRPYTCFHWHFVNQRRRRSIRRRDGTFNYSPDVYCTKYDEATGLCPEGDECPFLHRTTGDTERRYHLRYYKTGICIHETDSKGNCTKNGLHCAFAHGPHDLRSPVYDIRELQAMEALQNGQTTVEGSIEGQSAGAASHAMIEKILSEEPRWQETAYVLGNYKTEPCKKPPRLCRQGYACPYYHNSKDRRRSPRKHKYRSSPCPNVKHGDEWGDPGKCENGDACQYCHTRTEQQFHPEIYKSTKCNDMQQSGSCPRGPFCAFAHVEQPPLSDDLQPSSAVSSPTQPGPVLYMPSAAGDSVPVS
Setting: RNA with constant flanks, human and mouse sites, ends assumed
Shared flanks, not repeated: GGGAGUUCUACAGUCCGACGAUC … CAACAGAGGAUUGAGCAUCA
Oligonucleotide | bound/input enrichment [ratio]
CCAACUGAGCCAGGACCUCUGGGCAAAAGUGACUACAAAUCUUAAAACCCUACACAAGUAACCACAGCUCUUAGAACCUCACCAGAGUGGUAGAGCAAGUCUACUCCCAUUCCCCAGGCG | 0.266
GACCUCAUUGUGGCAGAUAGCAGCCGCAAGGAAAUUCUCCAUUUUCCCAAGGGCGGUGGCUACAGCGUCCUUAUUCGAGAGGGCCUUACCUGUCCAGUGGGCAUCGCCCUCACACCCAAG | 0.123
ACGUCCUUGGCAUGGCACCCGACUCAUCCCAGUACCCUGGCUGUGGGCUCCAAAGGGGGAGAUAUUAUGAUCUGGAACUUUGGCAUCAAGGACAAACCUAUCUUCCUUAAAGGGAUUGGA | 0.28
CGCGGAGGCCGGCCGGGGGACGGCGUCCUGCCCCGGGAGCAGCUGAUACUUUUAGGGACACUAGUAGACCUAUUGGGAGAUUCGGAACAAGAAUGUAGGAGUGGAAGCCUGUAUGUGAGG | 1.42
GAAGGGGAGCACCAUGAGAAAGCGGUAGAGCUACUGAAAGCAGCCCAAGGGAAGGUUAAAUUAGUCGUACGGUACACACCAAAAGUCUUGGAAGAAAUGGAGUCCCGCUUUGAGAAAAUG | 0.406
AAUUUUCUUUUUUGGCCCUAGGCUGGUUGGGACCUCUACAGCUUCAUUCUUUCACCAUUAAAUAGUGGCCUUUUUCAGUAUUUUCCCUCUUCCCCUUUAUAAAUUAUGCUAAAGCCACAA | 1.76
CUGAUGCAGUUGCUGGAUGAGGCGCUAACGGAGGUGGACCAGAUUGAACUGAAACUGAGCAGUUACGAGGAGAUGCUCCAAAGUGUGAAAGAGCAGAUGGAUCAGAUCUCUGAGAGCAAC | 0.202
CUGAGGAUACCACUGAAGAGACCUUAAAAGAAUCAUUUGAGGGCUCUGUUCGUGCAAGAAUAGUCACUGAUCGGGAAACUGGUUCUUCCAAAGGGUUUGGUUUUGUAGACUUUAAUAGUG | 0.769
AGCGGAUGAUAGAAGCAGUAGAUAACAAUUUACGGCCAAAAUCAGAAUAAGAGCUUUAUGUUCUGAGAAGCACUUUAAGGAAUUUAGCUUUGUCAAAAUAUAUUAGGAAUCACUAAUGAG | 3
AAGCCCUACCAACAGCUACAGAAUAUCAUAUGCUAUGACUGUGUUGCCUUUUUUUUUAGCUAGUUUUCAUUGUGUUCUGUUUUCACUCUUGAUAAGUAAAAAACUCUGAAAUUGCCACUG | 1.9
UUGGGUGUUCCAGCUCCAGGACAUUGUGCUCAGGAGUUUGAAAAAGGCUGCUAUACUCAGUCGGGUUACUGGGUUUCUUGUUCCUCUUUGUGCCUGCCUGCCUUGCCCAAGCUCACUCUG | 0.191

Set 2 — technique: RNA Bind-n-Seq; molecule type: RNA; matrix: in vitro; tested at: 365 nM; reference: no-protein control; reading: higher = stronger binding
Target: RNA binding protein fox-1 homolog 2, RRM domain, GST-SBP tag (RBFOX2, Homo sapiens, UniProt O43251-10, residues 100-194)
Setting: natural RNA segment, single round, ends assumed
Shared flanks, not repeated: GGGAGUUCUACAGUCCGACGAUC … UGGAAUUCUCGGGUGCCAA
Target sequence (chain): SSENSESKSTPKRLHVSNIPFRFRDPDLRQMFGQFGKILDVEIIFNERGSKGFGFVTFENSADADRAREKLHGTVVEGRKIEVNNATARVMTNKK
Oligonucleotide | RBNS enrichment (R)
UCAUCUGGUUUAGAAAGCAAUUCAGUUUCUUUCAAACCACCAUAACCUAAGUGCUGCCCCAUCCUUCACCUUUACCCUAGAAAAUCUGAGAAUCCAUUGGUGUGUACUGU | 0.43
GGUCUGGCUUGAGCAUCUAUGGGCAGCCACAGCGACCAGUCUAGUCCCAGACAGCACAGGUCAAGCAGCGUGGGACUGUGGAGCCCCUGGCAGGCUGGCCUGGUGCUGCC | 0.223
CAAGUUUUAGAAAAUCUUAGAAGAGGGGUGGGUGCAUGUCUUAAUGCUGGGAAGCGGCAACUUUGGGGUUGAACUUACUUGAAUGGAUUAAAAAUUGCAUUGUGUUACAG | 3.19
GCCUUUCUCCCCUCUGCUUCCUCAUUACUUUUGUCCUCCCUGGGAGCGUUCGCGCUCUGGGUCACUGGAUUGUUUCGUGUUUAUGUGUGAUUGUACCAAGGAACUUAGCC | 0.865
GUUAGUAGCUUCACAGGGCUUUUAUGUUUAACUUAUUCCCAGGGGCCGUCCCACCCUGCUGUGCCUGCACAGUUCCCAGUGCCUGUGCCUGCGCCUGCUGGGGACAGUGU | 2.2
CAGGGCAGCAGAUCUGUAUAUUUUUUUCUAAGAGAAAAUGUAAAUAAAGGAUUUCUAGAUGAGUGAGCUCAUUACUAAACUAAAGCAGGAGUGGGUCAAUACAGCAGCUG | 0.33
GCAAUUUGAGCUACCUGAGGAGGAGGCAGGGCAGAAAGGGCGAGGGCCUGCCUCUGACCUGCCGUGUCCUUUGCAGGAAGGAGGUAGGCACCUUUCUGAGCUUAUUCUAU | 0.606
CUCAACAGACAAUUAGAAAAAAGUCCACACUUGAAGCCUAAAUUUGUGCUUUUUAAGAAUAUUUUUAGACUAUUUCUUUUUAUAGGGGCUUUGCUGAAUUCUAACAUUAA | 0.429
AAUCUCAGAAUGGAUGGAAAAGAGGAAGACAUUAGGGACUGUCAGGUCCAUUUAAAGAGGAAAUUACAUUGUUACUCUUCUUGAUCUCCUCAGGCUAUGUAAGUCUGAAG | 0.786
CCUGCUGUGGGAAGAGGGUACUGAAUGGGCAAGAGCCUACAAGGUUCAGUCUAUGAUGGAGAGGGGACCAGGUCAAGGGCCUCAGCCAGAGCAGACCAGGCUGCCUCAGA | 0.329
ACACAGCAUUUUCAAAGAUAGCCUGGGAGCACUGUCUCUGACCACCUGUCUUCCUCUGCACCGUGCUCAGGGAAAUGGCCUUCAUUCCAGAGGCCAGCUGUCUGCCUGAC | 0.33
AUUAAUGGUAUUGAAGUGUGUUAGUAGUCUGGCCGUGUGCCCAAACUUAUGUUUCGCAGCAAAAGUGGAAACCUGUCUGUAAAGCAAGUGUAACGAUGAUUUCCUGUAUC | 0.826

Set 3 — technique: protein-binding microarray; molecule type: double-stranded DNA, one strand shown; matrix: in vitro; tested at: 2540 nM top; setting: 60-bp whole probe; together with: salmon DNA 0.4 mg/ml; reference: random background probes; reading: higher = stronger binding; shared flanks, not repeated: GCCTAGCAC … GTCTTGATTCGCTTGACGCTGCTG
Target: Interferon regulatory factor 3, full length, phosphomimetic (IRF3, Homo sapiens, UniProt Q14653, residues 1-427, S386D/S396D/S398D/S402D/T404D/S405D)
Target sequence (chain): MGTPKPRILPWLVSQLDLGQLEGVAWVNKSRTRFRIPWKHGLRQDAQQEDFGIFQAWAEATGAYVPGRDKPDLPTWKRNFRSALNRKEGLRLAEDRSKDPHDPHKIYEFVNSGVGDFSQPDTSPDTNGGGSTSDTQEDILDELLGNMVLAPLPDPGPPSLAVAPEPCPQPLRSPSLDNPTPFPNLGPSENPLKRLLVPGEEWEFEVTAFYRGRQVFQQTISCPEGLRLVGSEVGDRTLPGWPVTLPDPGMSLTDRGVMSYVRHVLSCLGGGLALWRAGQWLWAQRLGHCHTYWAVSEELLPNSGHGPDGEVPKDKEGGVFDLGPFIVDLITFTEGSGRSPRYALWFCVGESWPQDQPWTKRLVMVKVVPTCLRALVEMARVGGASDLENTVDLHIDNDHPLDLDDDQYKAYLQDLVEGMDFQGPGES
Oligonucleotide | fitted relative affinity [z-score]
GACGATTACAGTATCGAGACGTGCTAG | 0.527
GACGGTTTCTGGACTGGGGACGTGCTA | 2.31
TTAGGTTTCCTTCTCCCTTAGTGCTAG | 9.69
TCATTTCTCCTTTCCAAACTGTGCTAG | 5.06
GATGATTTCAGTATCGAGACGTGCTAG | 1.79
TCAACCATCCCTTATAAAACTGTGCTA | 0.459
TTAGGTATCCTTATCGTTTAGTGCTAG | 5.78
GACGATATCGGGATTCGAGACGTGCTA | 0.343
TTAGGAGTGGTACATGAAGCGTGCTAG | -0.69
TTAGGTCTCCTTATCCATTAGTGCTAG | 2.79
TTAGGTACCCTACTGCTTTAGTGCTAG | 1.52
TTAGGTATCGGGTTCCGGTTAGTGCTA | 2.56
TTAGGTTTCCTTATTCTTTAGTGCTAG | 7.58
GACGCTTTCGGTTTCGGGACGTGCTAG | 7.74
GACGCACTGGGGTATCGAGACGTGCTA | -0.576
TCACTTTTGCTAATTTTACTGTGCTAG | 1.11
TTAGGACTGATTATCCTTTAGTGCTAG | 0.884
GACGGTATCGGGCCTGGGGACGTGCTA | 0.424
TTAGGTTCGGGTTTCGGTTAGTGCTAG | 3.85
TTAGGTTTCCACTTTCGGTTAGTGCTA | 5.55
TTAGGACCGCTACTGCTTTAGTGCTAG | -0.485
GACGGACTGCTGCTCCTGACGTGCTAG | -0.631
TTAGGTTTGGGTCTCGGTTAGTGCTAG | -0.0525

Set 4 — technique: protein binding microarray; molecule type: double-stranded DNA, one strand shown; matrix: in vitro; tested at: not given; reference: not given; reading: higher = stronger binding
Target: Histone acetyltransferase KAT6A, winged helix 1, GST fusion (KAT6A, Homo sapiens, UniProt Q92794, residues 1-85)
Setting: 8-mer, flanks averaged, mean of 2 arrays, mostly near background
Construct (chain): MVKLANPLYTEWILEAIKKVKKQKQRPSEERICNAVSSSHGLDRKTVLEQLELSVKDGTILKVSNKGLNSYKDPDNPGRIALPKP
Oligonucleotide | E-score
AATTGATG | -0.183
CCTGTAAC | -0.153
CTTAGTGA | -0.192
CACACGGA | 0.276
GTGTTCTA | 0.0452
GGCTTCTA | 0.09
ACGGGTAA | 0.32
CAGACTGA | -0.172
AAATGCTC | -0.11
GAGAGGCA | -0.179
AAGCTTGT | -0.154
ACACAAAA | -0.248
ATTACCAC | -0.132
ATACTCAA | -0.149
CGCGCGTA | 0.462
ATCTAATA | -0.161
TAGTGGAA | -0.0575
AAGAGGCC | -0.0166
AAGACACA | -0.3
CTGCCGTA | 0.303
CAGCCCTA | -0.037
ATGCCAGG | -0.164

A few entries again (set 2):
Oligonucleotide | RBNS enrichment (R)
GGUCUGGCUUGAGCAUCUAUGGGCAGCCACAGCGACCAGUCUAGUCCCAGACAGCACAGGUCAAGCAGCGUGGGACUGUGGAGCCCCUGGCAGGCUGGCCUGGUGCUGCC | 0.223
CAAGUUUUAGAAAAUCUUAGAAGAGGGGUGGGUGCAUGUCUUAAUGCUGGGAAGCGGCAACUUUGGGGUUGAACUUACUUGAAUGGAUUAAAAAUUGCAUUGUGUUACAG | 3.19
GCCUUUCUCCCCUCUGCUUCCUCAUUACUUUUGUCCUCCCUGGGAGCGUUCGCGCUCUGGGUCACUGGAUUGUUUCGUGUUUAUGUGUGAUUGUACCAAGGAACUUAGCC | 0.865
GUUAGUAGCUUCACAGGGCUUUUAUGUUUAACUUAUUCCCAGGGGCCGUCCCACCCUGCUGUGCCUGCACAGUUCCCAGUGCCUGUGCCUGCGCCUGCUGGGGACAGUGU | 2.2
CAGGGCAGCAGAUCUGUAUAUUUUUUUCUAAGAGAAAAUGUAAAUAAAGGAUUUCUAGAUGAGUGAGCUCAUUACUAAACUAAAGCAGGAGUGGGUCAAUACAGCAGCUG | 0.33
GCAAUUUGAGCUACCUGAGGAGGAGGCAGGGCAGAAAGGGCGAGGGCCUGCCUCUGACCUGCCGUGUCCUUUGCAGGAAGGAGGUAGGCACCUUUCUGAGCUUAUUCUAU | 0.606
CUCAACAGACAAUUAGAAAAAAGUCCACACUUGAAGCCUAAAUUUGUGCUUUUUAAGAAUAUUUUUAGACUAUUUCUUUUUAUAGGGGCUUUGCUGAAUUCUAACAUUAA | 0.429
AAUCUCAGAAUGGAUGGAAAAGAGGAAGACAUUAGGGACUGUCAGGUCCAUUUAAAGAGGAAAUUACAUUGUUACUCUUCUUGAUCUCCUCAGGCUAUGUAAGUCUGAAG | 0.786
CCUGCUGUGGGAAGAGGGUACUGAAUGGGCAAGAGCCUACAAGGUUCAGUCUAUGAUGGAGAGGGGACCAGGUCAAGGGCCUCAGCCAGAGCAGACCAGGCUGCCUCAGA | 0.329
ACACAGCAUUUUCAAAGAUAGCCUGGGAGCACUGUCUCUGACCACCUGUCUUCCUCUGCACCGUGCUCAGGGAAAUGGCCUUCAUUCCAGAGGCCAGCUGUCUGCCUGAC | 0.33
AUUAAUGGUAUUGAAGUGUGUUAGUAGUCUGGCCGUGUGCCCAAACUUAUGUUUCGCAGCAAAAGUGGAAACCUGUCUGUAAAGCAAGUGUAACGAUGAUUUCCUGUAUC | 0.826
